Measured values pooled from the literature.
Protocols differ between the studies behind these lines. Numbers after ± are the reported error. Values after ≈ are worked out from the molar mass of the structure shown.
Organism: Pseudomonas aeruginosa

Substance	test	system	setting	quantity	result
Cc1cc(C)n(C(N)=S)n1	broth microdilution, agar subculture	ATCC 25619	24 h	MBC	> 1000 µg/mL
C[C@@H](O)[C@H]1C(=O)N2C(C(=O)O)=C(S[C@@H]3CN[C@H](C(=O)N(C)C)C3)[C@H](C)[C@H]12	checkerboard broth microdilution	clinical isolate 8-97	together with: magainin II	FIC index	0.25
GWGSFFKKAAHVGKHVGKAALTHYL-NH2 (C-amide)	bacterial growth, broth microdilution	peptide, PAO1, Mueller-Hinton broth	overnight, 37 °C	MIC50	1.65 ± 0.87 µg/mL
C[C@H](NC(=O)CNC(=O)[C@@H](NC(=O)[C@H](CO)NC(=O)[C@H](CC(=O)O)NC(=O)[C@H](CO)NC(=O)[C@H](CO)NC(=O)[C@H](C)NC(=O)[C@H](CC(=O)O)NC(=O)[C@@H](N)CCC(=O)O)[C@@H](C)O)C(=O)N[C@@H](CC(=O)O)C(=O)N1CCC[C@H]1C(=O)N[C@@H](C)C(=O)N[C@@H](CCC(N)=O)C(=O)N[C@@H](CCC(=O)O)C(=O)N[C@@H](C)C(=O)NCC(=O)N[C@H](C(=O)N[C@@H](CO)C(=O)N[C@@H](CCCCN)C(=O)N1CCC[C@H]1C(=O)N[C@@H](CC(N)=O)C(=O)N[C@@H](CCC(=O)O)C(=O)N[C@@H](CCC(=O)O)C(N)=O)[C@@H](C)O		PA14, iron-depleted	10, 25 or 100 µM, 45 min, 35 °C, together with: exogenous Fe2+	iron uptake	no effect
CC(C)C[C@H](NC(=O)CNC(=O)[C@H](C)NC(=O)c1ccc(S[C@@H]2O[C@H](CO)[C@H](O)[C@H](O)[C@H]2O)cc1)C(=O)N[C@@H](C)C(=O)NC[C@@H]1CCN(c2cc3c(cc2F)c(=O)c(C(=O)O)cn3C2CC2)C1	broth microdilution	PA14, P. aeruginosa supernatant in PBS	10% supernatant, 3 h preincubation	MIC	1.56 to 3.13 µM
colistin	checkerboard titration	17-99	together with: ranalexin	FIC index	0.25
O=C(Nc1ccccc1)c1cccc(Cl)c1	microbial growth, broth dilution	ATCC27853		MIC	> 64 µg/mL
CN(C)c1ccc(/C=C2/SC(Nc3ccc(S(N)(=O)=O)cc3)=NC2=O)cc1	microbial growth	ATCC10145	50 µg/mL, 24 h	inhibition	37.6%
CCC(=O)O[C@H]1[C@H](C)O[C@@H](O[C@H]2[C@H](N(C)C)[C@@H](O)[C@H](O[C@H]3[C@@H](CC=O)C[C@@H](C)[C@@H](O)/C=C/C=C/C[C@@H](C)OC(=O)C[C@@H](O)[C@@H]3OC)O[C@@H]2C)C[C@@]1(C)O	growth	SG 137, DMSO–methanol	50 µL of 2.0 mM, 24 h, 37 °C	inhibition zone diameter	11 mm
CC[C@H](C)[C@H](NC(=O)CNC(=O)[C@H](CCC(=O)O)NC(=O)[C@H](CO)NC(=O)[C@@H](NC(=O)[C@H](CCCNC(=N)N)NC(=O)[C@H](CCCCN)NC(=O)[C@H](CCCCN)NC(=O)[C@H](C)NC(=O)[C@H](CO)NC(=O)[C@H](CC(N)=O)NC(=O)[C@H](CCC(=O)O)NC(=O)[C@H](CC(C)C)NC(=O)[C@H](CCCCN)NC(=O)[C@H](CCCCN)NC(=O)[C@H](C)NC(=O)[C@@H](NC(=O)[C@H](CCCCN)NC(=O)[C@H](CO)NC(=O)[C@H](CC(C)C)NC(=O)[C@H](Cc1c[nH]c2ccccc12)NC(=O)[C@@H](N)CO)[C@@H](C)O)[C@@H](C)CC)C(=O)N[C@@H](C)C(=O)N[C@H](C(=O)N[C@@H](C)C(=O)N[C@H](C(=O)N[C@@H](CCC(N)=O)C(=O)NCC(=O)NCC(=O)N1CCC[C@H]1C(=O)N[C@@H](CCCNC(=N)N)C(=O)O)[C@@H](C)CC)[C@@H](C)CC	broth microdilution		18 h, 10 clinical isolates	MIC range	2 to 32 µg/mL (≈ 0.599 to 9.58 µM)
CN(C)CCSc1nnc(C23CC4CC(CC(C4)C2)C3)n1C		IFO 3448	200 µg/disc, 24 h, 37 °C	inhibition zone diameter	< 10 mm
C[C@H]1c2cccc(O)c2C(=O)C2=C(O)[C@]3(O)C(=O)C(C(N)=O)=C(O)[C@@H](N(C)C)[C@@H]3[C@@H](O)[C@@H]21	checkerboard	ATCC 27853	together with: magainin II	FIC index	1.5
CC1(C)S[C@@H]2[C@H](NC(=O)[C@H](N)c3ccccc3)C(=O)N2[C@H]1C(=O)O		IFO 3448	100 µg/disc, 24 h	inhibition zone diameter	16 mm
Cc1ccc(S(=O)(=O)Oc2cccc(C(C)C)cc2=O)cc1	microbial growth, broth dilution	ATCC27853		MIC80	> 100 µM

Excerpt of the above:
Substance	test	system	setting	quantity	result
C[C@H]1c2cccc(O)c2C(=O)C2=C(O)[C@]3(O)C(=O)C(C(N)=O)=C(O)[C@@H](N(C)C)[C@@H]3[C@@H](O)[C@@H]21	checkerboard	ATCC 27853	together with: magainin II	FIC index	1.5
CC1(C)S[C@@H]2[C@H](NC(=O)[C@H](N)c3ccccc3)C(=O)N2[C@H]1C(=O)O		IFO 3448	100 µg/disc, 24 h	inhibition zone diameter	16 mm
